Experimental data collected from several papers.
Each numbered part is a random draw from the data of one study; scales do not carry over between parts.

Block 1 — technique: universal PBM; form: double-stranded DNA, one strand shown; matrix: in vitro; tested at: 600 nM; reading: higher = stronger binding; endpoint: E-score
Target: Sal-like protein 4, full length isoform A (SALL4, Homo sapiens, UniProt Q9UJQ4, residues 1-1053)
UniProt Q9UJQ4, sequence (whole entry, looked up): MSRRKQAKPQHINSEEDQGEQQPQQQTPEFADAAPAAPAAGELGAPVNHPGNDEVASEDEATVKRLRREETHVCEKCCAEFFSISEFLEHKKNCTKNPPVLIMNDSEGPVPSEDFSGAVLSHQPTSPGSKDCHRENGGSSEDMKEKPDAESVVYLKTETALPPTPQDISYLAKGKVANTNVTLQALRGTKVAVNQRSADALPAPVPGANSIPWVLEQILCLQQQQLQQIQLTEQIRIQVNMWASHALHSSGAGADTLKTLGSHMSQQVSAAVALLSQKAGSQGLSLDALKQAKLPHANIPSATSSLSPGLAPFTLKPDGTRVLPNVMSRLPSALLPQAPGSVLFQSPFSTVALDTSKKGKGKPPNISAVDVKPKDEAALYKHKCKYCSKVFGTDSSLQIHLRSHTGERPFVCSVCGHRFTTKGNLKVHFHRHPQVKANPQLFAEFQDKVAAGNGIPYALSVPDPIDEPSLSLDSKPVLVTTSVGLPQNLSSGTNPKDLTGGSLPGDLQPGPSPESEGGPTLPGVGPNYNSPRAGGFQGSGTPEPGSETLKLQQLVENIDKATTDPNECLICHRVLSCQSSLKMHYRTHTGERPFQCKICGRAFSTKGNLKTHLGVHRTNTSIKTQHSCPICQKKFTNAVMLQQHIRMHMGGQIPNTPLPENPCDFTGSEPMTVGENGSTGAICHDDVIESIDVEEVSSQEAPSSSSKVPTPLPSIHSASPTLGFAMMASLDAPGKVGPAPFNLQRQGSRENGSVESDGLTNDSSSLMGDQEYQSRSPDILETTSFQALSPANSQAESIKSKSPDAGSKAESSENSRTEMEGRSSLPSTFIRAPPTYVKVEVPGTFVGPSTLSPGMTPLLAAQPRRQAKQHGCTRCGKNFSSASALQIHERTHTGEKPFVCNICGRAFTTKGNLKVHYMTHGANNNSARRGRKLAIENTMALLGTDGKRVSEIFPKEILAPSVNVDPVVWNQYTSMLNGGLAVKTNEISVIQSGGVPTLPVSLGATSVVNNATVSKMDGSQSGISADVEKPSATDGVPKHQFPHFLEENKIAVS
Setting: 8-mer, flanks averaged, mean of replicates
ACTCAAAC: 0.0593
AAGGCAGC: -0.23
CCGGGGAG: -0.33
CGAGCTAA: -0.188
ACAGTCCG: -0.186
CCTTGTGA: -0.0195
AGTTGGTA: 0.203
AACTCGTA: 0.173
AGCCCCCC: -0.364
ACGTACGC: -0.121
CCTGCATC: -0.178
TGAAGCAA: 0.0453
CTAATCGA: 0.037
CAAGGTAG: -0.079
TGGTACCA: -0.277
TCATTCCA: 0.105
GGTTCTAA: 0.0843
AGGGACAA: -0.123
ATATCAGA: 0.284
AGGCAGGC: -0.262
AAGTGGCT: -0.125
AAAACTAT: 0.23
CAGTTTTC: 0.0452

Block 2 — technique: protein-binding microarray; form: double-stranded DNA, one strand shown; matrix: in vitro; tested at: 940 nM top; setting: 60-bp whole probe; together with: salmon DNA 0.4 mg/ml; relative to: random background probes; reading: higher = stronger binding; endpoint: fitted relative affinity; shared flanks, not repeated: GCCTAGCAC … GTCTTGATTCGCTTGACGCTGCTG
Target: Interferon regulatory factor 5, full length, phosphomimetic (IRF5, Homo sapiens, UniProt Q13568-2, residues 1-514, S451D/S453D/S456D/S462D)
TTCCCTCTGCTCCTCTTTTTGTGCTAG: 1.52 z-score
GACGATTTCGGTTCCGGGACGTGCTAG: 2.13 z-score
TTAGGTTTCCTTAGCCTTTAGTGCTAG: 1.1 z-score
TCAATATTCACTATAGTACTGTGCTAG: 0.357 z-score
TTAGGACTGCTACAGCTTTAGTGCTAG: -0.68 z-score
GACGGACTGCTACTGCTCACGTGCTAG: -0.651 z-score
GAGGGACTGGGGTTTCGGGACGTGCTA: 1.8 z-score
TCATCATTTTCTTTAACACTGTGCTAG: 1.69 z-score
GACGGTTTCGGTATCGGCACGTGCTAG: 12.9 z-score
TTAGATTCCGGGTATCGATTAGTGCTA: 3.51 z-score
TTAGGTATGCTTCTCCTTTAGTGCTAG: -0.215 z-score
AACGAACTGGGGTATCGAGACGTGCTA: 1.2 z-score
TCACTCCTCCTTCTCTAACTGTGCTAG: 0.992 z-score
TCAATTATTTATTGTAGCACTGTGCTA: -0.0424 z-score
TTAGGTTTCCTTCTCTTTTAGTGCTAG: 2.35 z-score
TTAGGTTTCGATTTTCGGTTAGTGCTA: 11.6 z-score
GACGATATCGGGACTGGCGACGTGCTA: -0.377 z-score
GACGGTATGGACACTGGGGACGTGCTA: -0.262 z-score
GACGGTATTGACTTTCGGGACGTGCTA: 1.3 z-score
TTAGGTTCCGGTTTCGGTGAGTGCTAG: 7.87 z-score

Block 3 — technique: RNA Bind-n-Seq; form: RNA; matrix: in vitro; tested at: 200 nM; setting: whole 134-nt RNA, ends assumed; together with: 150 mM KCl; relative to: input library; reading: higher = stronger binding; endpoint: log2 enrichment
Target: Ras GTPase-activating protein-binding protein 1, full length (G3BP1, Homo sapiens, UniProt Q13283)
UniProt Q13283, sequence (whole entry, looked up): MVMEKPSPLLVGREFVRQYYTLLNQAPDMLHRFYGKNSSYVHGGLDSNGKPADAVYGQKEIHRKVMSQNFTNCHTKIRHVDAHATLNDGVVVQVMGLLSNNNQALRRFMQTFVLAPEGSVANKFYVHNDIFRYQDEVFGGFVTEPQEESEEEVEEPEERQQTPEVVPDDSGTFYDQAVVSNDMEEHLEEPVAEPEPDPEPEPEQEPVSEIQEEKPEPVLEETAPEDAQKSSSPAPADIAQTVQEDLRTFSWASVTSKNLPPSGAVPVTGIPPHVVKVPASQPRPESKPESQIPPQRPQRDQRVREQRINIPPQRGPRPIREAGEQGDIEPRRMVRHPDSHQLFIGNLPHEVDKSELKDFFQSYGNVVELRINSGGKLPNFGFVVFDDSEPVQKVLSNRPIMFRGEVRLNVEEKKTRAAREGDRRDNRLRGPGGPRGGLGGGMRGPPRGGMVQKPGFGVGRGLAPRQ
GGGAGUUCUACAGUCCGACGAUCUGGGAGGUGGAUUUUGUUUAUUUUUUUAGCUCAUUUCCAGGGGUGGGAAUUUUUUUUAAAUAUGUGUCAUGAAUAAAGUUGUUUUUGAAAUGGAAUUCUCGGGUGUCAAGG: 0.142
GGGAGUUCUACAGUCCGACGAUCUGGGAGGUGGAUUUUGUUUAUUUUUUUAGCUCAUUUCCAGCGGUGGGAAUUUUUUUUUAAUAUGUGUCAUGAAUAAAGUUGUUUUUGAAAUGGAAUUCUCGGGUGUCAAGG: -0.0529
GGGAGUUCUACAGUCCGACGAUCACCAUGCAGGUGGGCAUCUUUGGGAAGUGGGGCAAGGGGGGGAUAGGGAGGGGGGUAACACUUUGGGUACAGGUGGUCCCAGGUCGUUUCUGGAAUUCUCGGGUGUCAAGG: 1.2
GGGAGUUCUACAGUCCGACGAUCACCAUGCAGGUGCGCAUCUUUGGGAAGUGGGGCAAGGGGGGGAUAGGGAGGGGGGUAACACUUUGGGAACAGGUGGUCCCAGGUCGUUUCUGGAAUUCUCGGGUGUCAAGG: 0.985
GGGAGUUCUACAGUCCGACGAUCUGGGAGGUGGAUUUUGUUUAUUUUUUUAGCUCAUUUCCAGGGGUGGAAAUUUUUUUUUAAUAUGUGUCAUGAAUAAAGUUGUUUUUGAAAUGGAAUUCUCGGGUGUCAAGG: 0.0213
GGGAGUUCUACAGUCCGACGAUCAAGUCCUGUGCUACACAUCGUAUGUACCGAAUCGGGGCCCCGGCCCCGGGGCCCCGGAAAGUAUUAUGUUACGCCGUUCGGAUCUGCACUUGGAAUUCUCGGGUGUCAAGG: -0.915
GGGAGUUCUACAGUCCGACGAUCUCCGCACACCCGGCCUGUCACCCUGCUUUCCCUGCCUCUACUUGACUUGGAAUUGGCUGAAGACUACACAGGAAUGCAUCGUUCCCACUCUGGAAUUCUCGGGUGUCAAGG: 1.25
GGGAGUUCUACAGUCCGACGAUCUCCUGUGCUACACAUCGUAUGUACCGAAUCGGGGUUUUUUUGGGGUGGGGUUUUUGGGGAAAGUAUUAUGUUACGCCGUUCGGAUCUGCAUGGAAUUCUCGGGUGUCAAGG: 0.704
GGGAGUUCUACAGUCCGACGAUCCAAGUCCUGUGCUACACAUCGUAUGUACCGAAUCGGGCCCGGGCCCGGCCCGGGGAAAGUAUUAUGUUACGCCGUUCGGAUCUGCACUUCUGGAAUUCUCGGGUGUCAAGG: -0.994
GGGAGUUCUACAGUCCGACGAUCUCAAGUCCUGUGCUACACAUCGUAUGUACCGAAUCGGGGUUGGUUGGGGUUGGGGAAAGUAUUAUGUUACGCCGUUCGGAUCUGCACUUCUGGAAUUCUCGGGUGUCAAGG: 0.412
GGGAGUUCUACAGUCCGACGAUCUCCUGUGCUACACAUCGUAUGUACCGAAUCGGCCCCCCGGGCCCCCCGGGGCCCCCCGGAAAGUAUUAUGUUACGCCGUUCGGAUCUGCAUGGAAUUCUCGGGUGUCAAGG: -0.617
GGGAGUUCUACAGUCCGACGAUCCACAGACAACACGCACCCACACAGACACAGAGGGAAGGGGUUGGGAUGGGGACAGGGUGCACAGCAGGGCGGGGUAGGACAAAAGCCCCUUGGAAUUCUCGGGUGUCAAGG: 1.67
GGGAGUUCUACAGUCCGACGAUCCAAGUCCUGUGCUACACAUCGUAUGUACCGAAUCGGCCCCGGGGCCCCGGCCCCGGAAAGUAUUAUGUUACGCCGUUCGGAUCUGCACUUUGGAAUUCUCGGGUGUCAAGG: -1.05
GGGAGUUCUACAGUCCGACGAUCCACAUACAACACGCACCCACACAGACACAGAGGGAAGGGGUUGGGAUGGGGACAGGGUGCACAGCAGGGCGGGGUAGGACCCCAGCCCCUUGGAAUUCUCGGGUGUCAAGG: 1.84

Block 4 — technique: RNA Bind-n-Seq; form: RNA; matrix: in vitro; tested at: 365 nM; relative to: no-protein control; reading: higher = stronger binding; endpoint: RBNS enrichment (R)
Target: RNA binding protein fox-1 homolog 2, RRM domain, GST-SBP tag (RBFOX2, Homo sapiens, UniProt O43251-10, residues 100-194)
Setting: natural RNA segment, single round, ends assumed
Residues (chain): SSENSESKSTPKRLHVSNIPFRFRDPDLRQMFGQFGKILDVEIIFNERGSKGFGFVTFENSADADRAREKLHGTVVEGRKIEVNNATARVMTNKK
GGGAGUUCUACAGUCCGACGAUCUUGCCUAUUGAUGUUCCUUUGGGUCUGUGAGGUUCUGUAAACUGUGCUAGUGCUGACGAUGUUCUGUACAACUUAACUCACUGGCGAGAAUACAGCGUGGGACCCUUCAGUGGAAUUCUCGGGUGCCAA: 0.579
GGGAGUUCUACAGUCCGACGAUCGAGGGUUGUGCUACAGAUGAUAGAGGAUUUUAUACCCCAAUAAUCAACUCGUUUUUAUAUUAAUGUACUUGUUUCUCUGUUGUAAGAAUAGGCAUUAACACAAAGGAGGCUGGAAUUCUCGGGUGCCAA: 1
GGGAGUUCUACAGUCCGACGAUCUGCUGGGCCUCCGCCUUCUUUUCUACGUGAAAUCAGUGAGGUGAGACUUCCCAGACCCCGGAGGCGUGGAGGAGAGGAGACUGUUUGAUGUGGUACAGGGGCAGUCAGUGUGGAAUUCUCGGGUGCCAA: 0.733
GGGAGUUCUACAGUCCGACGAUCGGUCACUGUGUUUCCACACAGCAAAAACAGACGUAGCCAUAUCAGAUGGAAAACAUGCAUAGACACAAACCCCCUGCCUUAUGUGGAAAUCAUAGCCCCCUGCCGCUCAGUGGAAUUCUCGGGUGCCAA: 0.669
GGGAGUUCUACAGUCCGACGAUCUGGGAAGUUCUUUUAAAUCAUACUAUUAAGACGACCAUCUCUUCUGUUAAAUUGCAGUACGUGUUAUAGACCACUCAGAUCAAGCCUCUACUCCCUCUGAGAGUUUUCAAUGGAAUUCUCGGGUGCCAA: 0.381
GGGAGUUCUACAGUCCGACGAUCCAGGCUUUUGGAGAAAAAGGACCCAAGUGACACUGAUGUUUACAAAGUACCUAUAAAACCCUGUACACACCUAGUUCAUAUUCCUCAUAAUUUAUCAACAAACACAAAAAUGGAAUUCUCGGGUGCCAA: 0.369
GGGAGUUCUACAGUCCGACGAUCGGGGUUUCCUGGUAUUGUGGAGGCACCCAGGUUGUCCAUGCUUGGGAUUCUGGGGGAAGGAGAGAAGGGCAGCUCAGGGUGGAUGUGAAGCCACCCUUCCUCUUCUGGACUGGAAUUCUCGGGUGCCAA: 1.73
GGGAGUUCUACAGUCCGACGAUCCUCUCAAAUCCCUCUCCAACUGCCUAAGGCCCUUUGUGUAAGGUGUCUUAAUACUGUCCUUUUUUUUUUUUUAACAGUGUUUUGUAGAUUUCAGAUGACUAUGCAGAGGCUGGAAUUCUCGGGUGCCAA: 0.814
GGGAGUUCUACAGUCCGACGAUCUGUUGCCUUUUCAUUGAUUAGAGACAAUAAAUAUCUUGUAACUUCCUAACCAGAUCUGAGCUGUGCUCACAAUAAUAAUAAUGAAAUCAGAUUCUUUGAUGCUGGACUCAUGGAAUUCUCGGGUGCCAA: 0.314
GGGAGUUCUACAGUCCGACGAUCGGAACAAGGGUCACUGGACCCUUGGGGAAAGUGGGAAAAGAGCUAUGUGCAAGGGCAGAUGCUCCAAAGACAGAGAAAUGGUGGCACUCACAGUUUCAUGACAGAAUAAAUGGAAUUCUCGGGUGCCAA: 1.83
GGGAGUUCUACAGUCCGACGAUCCAGGGCUUUUGCUUUUCUUCAAAGUACUGAGGAUCCAACCCAGUGCCUUACACGCCAGGCAAGUGUGACCACUGAGCUAGGCUCCCGCCCCCUUUACUUUUUGAAGCCAUUGGAAUUCUCGGGUGCCAA: 0.383
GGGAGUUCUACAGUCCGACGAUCCUCAGAAACGCGGCCAGAAGACAAGCAGGGAAGUGAAAGGUCCCAGGCACACACCCUGCCCAUUGCAGGUGGCUCUUACAGCUCUCUGGUGCCAGCACGGGAUCCCUGAAUGGAAUUCUCGGGUGCCAA: 0.239

Some of these lines once more (block 2):
TTAGGTATGCTTCTCCTTTAGTGCTAG: -0.215 z-score
AACGAACTGGGGTATCGAGACGTGCTA: 1.2 z-score
TCACTCCTCCTTCTCTAACTGTGCTAG: 0.992 z-score
TCAATTATTTATTGTAGCACTGTGCTA: -0.0424 z-score
